Published values from different studies.
Compare with care: the assays were run in different laboratories. “And” joins repeats or separate records; there may be more than shown. Numbers after ± are the reported error.

Compound = CC[C@@H](C)[C@H](NC(=O)[C@H](C)NC(=O)[C@H](CCCCN)NC(=O)[C@H](CC(C)C)NC(=O)[C@H](C)NC(=O)[C@@H](NC(=O)[C@H](Cc1c[nH]cn1)NC(=O)[C@H](CC(C)C)NC(=O)[C@@H](NC(=O)[C@@H](NC(=O)[C@H](CCCCN)NC(=O)[C@H](CCCCN)NC(=O)[C@H](C)NC(=O)[C@H](CO)NC(=O)[C@H](CCCCN)NC(=O)[C@H](Cc1ccccc1)NC(=O)[C@@H](NC(=O)[C@H](CCCCN)NC(=O)[C@H](CC(C)C)NC(=O)[C@H](Cc1ccccc1)NC(=O)[C@H](CO)NC(=O)[C@H](CCCCN)NC(=O)[C@H](Cc1c[nH]c2ccccc12)NC(=O)[C@H](CCCCN)NC(C)=O)[C@@H](C)O)[C@@H](C)O)C(C)C)[C@@H](C)O)C(=O)N[C@@H](CO)C(=O)N[C@@H](CO)C(N)=O; assay = RP-HPLC; system = Zorbax 300 SB-C18 column; conditions = 65 °C; quantity = retention time; result = 26.3 min
Compound = COCCOCCOCCOc1ccc(/C=C/c2c(I)c(C)c3n2[B-](F)(F)[N+]2=C(C)C(I)=C(C)C2=C3c2cc(OC)cc(OC)c2)cc1; assay = DPBF absorbance decrease; system = DMSO; how to read = reference: methylene blue; quantity = singlet oxygen quantum yield; result = 0.78
Compound = C[C@]12CC[C@H](OC(=O)NC3CCNCC3)C[C@H]1CC[C@@H]1[C@@H]2CC[C@]2(C)[C@@H](c3ccc(=O)oc3)CC[C@]12O; system = male Sprague-Dawley rat, plasma; conditions = intravenous, 5 mg/kg, single dose; quantity = AUC(0-inf); result = 15200 ng·h/mL
Compound = CC(C)[C@H](NC(=O)CNC(=O)[C@H](CCC(N)=O)NC(=O)[C@H](C)N)C(=O)O; system = human; conditions = 10 mg/kg, 3 days, thrice daily dosing; quantity = subjects given concomitant medication; result = 0%
Compound = COc1cc2ccnc(Cc3ccc(O[11CH3])c(OC)c3)c2cc1OC; system = Sprague-Dawley rat, hippocampus; conditions = i.v., 5 min; quantity = brain uptake; result = 0.188 %ID/g
Compound = CC(CCC(=O)NCC(=O)O)C1CCC2C3C(O)CC4CC(OC5OC(C(=O)O)C(O)C(O)C5O)CCC4(C)C3CCC12C (stereo not shown); system = human, SLCO1B1 *14/*14, plasma; conditions = geometric mean, sex-adjusted; quantity = plasma concentration; result = 6.42 ng/mL
Compound = C[C@@H]1CC[C@H]2[C@@H](C)CO[C@@H]3O[C@@]4(C)CC[C@@H]1[C@]32OO4; system = Sprague-Dawley rat, male; conditions = oral, 100 mg/kg; quantity = AUC extrapolated; result = 4.92 ± 1.35%
Compound = CC(=CCC(O)C(C)=Cc1csc(C)n1)CC=CC(C)C(O)C(C)C(=O)C(C)(C)C(O)CC(=O)O (stereo not shown); system = human, plasma; conditions = intravenous infusion, 11.3 mg/m2 KOS-1584, 3 h infusion, cycle 1; quantity = Tmax; result = 3.25 ± 0.51 h
Compound = CC(=O)CCC1C(=O)NC(C(C)C)C(=O)NC(Cc2cccc(O)c2)C(=O)N2CCCC(N2)C(=O)OC(C(C)=CC=CC(=O)N2CCCCO2)CC=CC=CC(O)C(C)C1O (stereo not shown); assay = dialysis; system = human plasma; conditions = 1 µM, 5 h, 37 °C; quantity = unbound fraction; result = 0.28
Compound = O=C(O)CCC(NP(=O)(O)OCCC[C@@H](NC(=O)CCC(NC(=O)CCCCCNC(=O)CCCCCNC(=O)c1ccc([18F])cc1)C(=O)O)C(=O)O)C(=O)O (stereo partly shown); assay = radioactivity; system = mouse, CWR22Rv1 xenograft; conditions = 2 h; how to read = reference: tumour over blood; quantity = tumour to blood ratio; result = 69.6 and 69 and 70
Compound = O=C(O)CCCN1CCN2CCN(CC1)CC(=O)[O][Al]([18F])[O]C(=O)C2; system = Sprague-Dawley rat, normal, intestines and stomach; conditions = 60 min; quantity = bowel uptake; result = 0.7 ± 0.1 %ID
Compound = CC[C@H](C)[C@H](NC(=O)[C@H](CCC(=O)O)NC(=O)[C@H](CCC(=O)O)NC(=O)[C@H](Cc1ccccc1)NC(=O)[C@H](CC(=O)O)NC(=O)CNC(=O)[C@H](CC(N)=O)NC(=O)CNC(=O)CNC(=O)CNC(=O)CNC(=O)[C@@H]1CCCN1C(=O)[C@H](CCCNC(=N)N)NC(=O)[C@@H]1CCCN1C(=O)[C@H](N)Cc1ccccc1)C(=O)N1CCC[C@H]1C(=O)N[C@@H](CCC(=O)O)C(=O)N[C@@H](CCC(=O)O)C(=O)N[C@@H](Cc1ccc(O)cc1)C(=O)N[C@@H](CC(C)C)C(=O)O; assay = LC-MS/MS; system = processed plasma samples; conditions = 7 h, autosampler stability, nominal 30.0 ng/mL; quantity = concentration; result = 29.9 ± 0.9 ng/mL
Compound = CCCCCCCC/C=C\CCCCCCCCOP(O)(O)=S.N; system = mouse, female, nonirradiated; conditions = sc, dose not given; quantity = Tmax; result = 1 h
Compound = CSCC[C@H](NC(=O)CNC(=O)[C@H](CC(=O)O)NC(=O)[C@@H](NC(=O)[C@@H](NC(=O)[C@@H](NC(=O)CNC(=O)[C@H](CCC(N)=O)NC(=O)[C@H](CCSC)NC(=O)[C@H](CC(=O)O)NC(=O)[C@H](C)NC(=O)[C@H](C)NC(=O)[C@@H](NC(=O)[C@H](CO)NC(=O)[C@@H](N)CC(C)C)[C@@H](C)O)C(C)C)C(C)C)[C@@H](C)O)C(=O)N[C@@H](C)C(=O)N[C@@H](CO)C(=O)NCC(=O)N[C@@H](CC(C)C)C(=O)N[C@@H](CC(=O)O)C(=O)N[C@@H](CCCCN)C(=O)N[C@@H](CC(=O)O)C(=O)N[C@@H](Cc1ccc(O)cc1)C(=O)N[C@@H](CC(C)C)C(=O)N[C@@H](CCCCN)C(=O)N1CCC[C@H]1C(=O)N[C@@H](CC(=O)O)C(=O)N[C@@H](CC(=O)O)C(=O)O; system = human, serum; conditions = intravenous, 2.5 mg/kg, patients, infusion; quantity = Cmax; result = 7680 ng/mL
Compound = CSCC[C@H](NC(=O)[C@H](CO)NC(=O)[C@H](Cc1ccc(O)cc1)NC(=O)[C@@H](N)CO)C(=O)N[C@@H](CCC(=O)O)C(=O)N[C@@H](Cc1c[nH]cn1)C(=O)N[C@@H](Cc1ccccc1)C(=O)N[C@@H](CCCNC(=N)N)C(=O)N[C@@H](Cc1c[nH]c2ccccc12)C(=O)NCC(=O)N[C@@H](CCCCN)C(=O)N1CCC[C@H]1C(=O)N[C@H](C(=O)NCC(=O)N[C@@H](CCCCN)C(=O)N[C@@H](CCCCN)C(=O)N[C@@H](CCCNC(=N)N)C(=O)N[C@@H](CCCNC(=N)N)C(=O)N1CCC[C@H]1C(=O)N[C@H](C(=O)N[C@@H](CCCCN)C(=O)N[C@H](C(=O)N[C@@H](Cc1ccc(O)cc1)C(=O)N1CCC[C@H]1C(=O)N[C@@H](CC(=O)O)C(=O)NCC(=O)N[C@@H](C)C(=O)N[C@@H](CCC(=O)O)C(=O)N[C@@H](CC(=O)O)C(=O)N[C@@H](CCC(=O)O)C(=O)N[C@@H](CC(C)C)C(=O)N[C@@H](C)C(=O)N[C@@H](CCC(=O)O)C(=O)N[C@@H](C)C(=O)N[C@@H](Cc1ccccc1)C(=O)N1CCC[C@H]1C(=O)N[C@@H](CC(C)C)C(=O)N[C@@H](CCC(=O)O)C(=O)N[C@@H](Cc1ccccc1)C(=O)O)C(C)C)C(C)C)C(C)C; system = healthy human subjects, plasma; conditions = subcutaneous, 80 IU twice weekly, day 1, repository corticotropin injection; quantity = AUC(0-last); result = 0.664 ng·h/mL
Compound = CSCC[C@H](NC(=O)[C@H](CC(N)=O)NC(=O)[C@@H](N)Cc1ccccc1)C(=O)N[C@@H](CCC(N)=O)C(=O)N[C@@H](C)C(=O)N[C@@H](CCC(N)=O)C(=O)N[C@@H](CCCNC(=N)N)C(=O)N[C@@H](CCCNC(=N)N)C(=O)N[C@@H](Cc1ccccc1)C(=O)N[C@@H](Cc1ccc(O)cc1)C(=O)N[C@@H](CCC(=O)O)C(=O)N[C@@H](C)C(=O)N[C@@H](CC(C)C)C(=O)N[C@@H](Cc1c[nH]cn1)C(=O)N[C@@H](CC(=O)O)C(=O)NCC(=O)NCC(=O)NCC(=O)NCC(=O)N[C@@H](CO)C(=O)N[C@@H](C)C(=O)N[C@@H](CCC(=O)O)C(=O)N[C@@H](C)C(=O)N[C@@H](CCC(=O)O)C(=O)N[C@@H](C)C(=O)N[C@@H](CCCCN)C(=O)N[C@@H](C)C(=O)N[C@@H](CCCCN)C(=O)N[C@@H](C)C(=O)N[C@@H](CCC(=O)O)C(=O)N[C@@H](C)C(=O)N[C@@H](CCC(=O)O)C(=O)N[C@@H](C)C(=O)N[C@@H](CCCCN)C(=O)N[C@@H](C)C(=O)N[C@@H](CCCCN)C(=O)O; system = EAK peptide fibrils; conditions = overnight, 37 °C, PBS, together with: EAK to compound ratio 10:1; quantity = incorporation into fibrils; result = 23%
Compound = C1=CCCC=CCC1.C1=CCCC=CCC1.[Cl][Hg-]([Cl])[Cl].[Cl][Hg-]([Cl])[Cl].[Pt+][c]1ccccc1P(=Nc1ccccc1)(c1ccccc1)c1ccccc1.[Pt+][c]1ccccc1P(=Nc1ccccc1)(c1ccccc1)c1ccccc1; assay = NMR; system = DMSO-d6; conditions = 1 week; quantity = free COD released; result = ~6%
Compound = CC(C)C[C@@H](NC(=O)[C@@H](CCCNC(=N)N)NC(=O)[C@@H](Cc1c[nH]cn1)NC(=O)[C@@H](Cc1c[nH]c2ccccc12)NC(=O)[C@@H](Cc1c[nH]cn1)NC(=O)[C@@H](Cc1ccccc1)NC(=O)[C@H](NC(=O)[C@@H](Cc1ccc(O)cc1)NC(=O)CNC(=O)CNC(=O)CCOCCOCCOCCNC(=O)CN1CCN(CC(=O)O)CCN(CC(=O)O)CC1)[C@H](C)O)C(=O)N[C@H](CC(N)=O)C(=O)N1CCC[C@@H]1C(=O)O [gallium-68 labelled]; assay = PET; system = human, large right lung primary tumour; quantity = SUVmax; result = 2.95 SUV
Compound = c1ccc(C2(CCNC3CCC4(SCCS4)c4ccccc43)CCOC3(CCCC3)C2)nc1 (stereo not shown); system = dog; conditions = intravenous, 0.3 mg/kg; quantity = AUC(0-24 h); result = 302 ng·h/mL
Compound = COc1cc(C(=O)NCCOCCOCCOCCNC(=O)c2ccc([18F])nc2)ccc1NC(=O)C1NC(CC(C)(C)C)C(C#N)(c2ccc(Cl)cc2F)C1c1cccc(Cl)c1F (stereo not shown); system = athymic male mice, HepG2 xenograft; conditions = 4 h; how to read = reference: tumour over liver; quantity = tumour-to-tissue ratio; result = 1 ± 0.52
Compound = CC[C@H](C)[C@H](NC(=O)[C@H](CCCCN)NC(=O)CNC(=O)[C@H](CC(C)C)NC(=O)[C@@H](NC(=O)[C@H](C)NC(=O)[C@H](CCCCN)NC(=O)CNC(=O)[C@H](C)NC(=O)CNC(=O)[C@H](CCCCN)NC(=O)[C@H](CCSC)NC(=O)[C@H](CCCCN)NC(=O)[C@@H](NC(=O)[C@H](Cc1c[nH]c2ccccc12)NC(=O)[C@H](CC(C)C)NC(=O)[C@H](CCC(N)=O)NC(=O)[C@H](CCCCN)NC(=O)[C@H](CC(C)C)NC(=O)[C@@H](N)CC(C)C)[C@@H](C)O)C(C)C)C(=O)N[C@@H](CCCCN)C(=O)NCC(=O)N[C@@H](CC(C)C)C(=O)N[C@@H](CC(C)C)C(=O)O; assay = acrylamide quenching; system = POPE:DOPG 3:1 vesicles; conditions = 2 µM, 250 µM total lipid, together with: acrylamide; quantity = Stern-Volmer constant; result = 1.63 ± 0.08 M⁻¹
Compound = CSCC[C@H](NC(=O)[C@H](Cc1ccc(O)cc1)NC(=O)[C@@H](CC(=O)O)NC(=O)CN1CCN(CC(=O)O)CCN(CC(=O)O)CCN(CC(=O)O)CC1)C(=O)NCC(=O)N[C@@H](Cc1c[nH]c2ccccc12)C(=O)N[C@@H](CCSC)C(=O)N[C@@H](CC(=O)O)C(=O)N[C@@H](Cc1ccccc1)C(N)=O; system = MF1 nude mouse, male, AR-42J xenograft; conditions = intravenous, 0.2 µg, 4 h, 111In-labelled; how to read = reference: tumour over kidney; quantity = tumour-to-kidney ratio; result = 0.23

Repeated from above:
Compound = C1=CCCC=CCC1.C1=CCCC=CCC1.[Cl][Hg-]([Cl])[Cl].[Cl][Hg-]([Cl])[Cl].[Pt+][c]1ccccc1P(=Nc1ccccc1)(c1ccccc1)c1ccccc1.[Pt+][c]1ccccc1P(=Nc1ccccc1)(c1ccccc1)c1ccccc1; assay = NMR; system = DMSO-d6; conditions = 1 week; quantity = free COD released; result = ~6%
